Measured values gathered from unrelated publications.
Compare with care: the assays were run in different laboratories. ± gives the spread as reported.
rep main protease: Replicase polyprotein 1ab, main protease (rep, Severe acute respiratory syndrome coronavirus 2, UniProt P0DTD1)

Substance | target or system | test | test system | setting | how to read | quantity | value
dmhA T187A (Campylobacter jejuni) | Nc1nc2c(ncn2[C@@H]2O[C@H](COP(=O)(O)OP(=O)(O)O[C@H]3O[C@H]([C@H](O)CO)[C@@H](O)[C@H](O)[C@@H]3O)[C@@H](O)[C@H]2O)c(=O)[nH]1 | steady-state kinetics | – | pH 7.5, 30 °C | – | Km | 165 µM
Rv1045 (Mycobacterium tuberculosis, UniProt P96356) | Nc1ccn([C@@H]2O[C@H](COP(=O)(O)OP(=O)(O)OP(=O)(O)O)[C@@H](O)[C@H]2O)c(=O)n1 | steady-state kinetics | – | pH 8.5, 37 °C | – | Km | 136 µM
rhodiosin | rep main protease | microscale thermophoresis | – | 63 min preincubation | – | Kd | 1.12 µM
ω-conotoxin GVIA | Voltage-dependent N-type calcium channel subunit alpha-1B (Cacna1b, Rattus norvegicus, UniProt Q02294) | binding | rat | dose not given | – | inhibition | 100%
cbh (Clostridium perfringens, UniProt P54965) | C[C@H](CCC(=O)N[C@@H](Cc1ccccc1)C(=O)O)[C@H]1CC[C@H]2[C@@H]3[C@H](O)C[C@@H]4C[C@H](O)CC[C@]4(C)[C@H]3C[C@H](O)[C@]12C | steady-state kinetics | – | pH 6.2, 37 °C | – | Km | 1010 µM
maraviroc | HEK-293T/ACE2 | – | – | concentration not given | relative to: vehicle | nuclei number | 98.5%
dmhA S134A (Campylobacter jejuni) | Nc1nc2c(ncn2[C@@H]2O[C@H](COP(=O)(O)OP(=O)(O)O[C@H]3O[C@H]([C@H](O)CO)[C@@H](O)[C@H](O)[C@@H]3O)[C@@H](O)[C@H]2O)c(=O)[nH]1 | steady-state kinetics | – | pH 7.5, 30 °C | – | kcat | 0.23 ± 0.01 s⁻¹
catechin gallate | rep main protease | enzyme activity, inhibitor | – | 63 min preincubation | – | IC50 | < 10 µM

For quick reference, copied from above:
Substance | target or system | test | test system | setting | how to read | quantity | value
catechin gallate | rep main protease | enzyme activity, inhibitor | – | 63 min preincubation | – | IC50 | < 10 µM
